Assay results pooled from the literature.
Each numbered part is a random draw from the data of one study; scales do not carry over between parts. Substitutions count along the parent as printed.

Set 1
Target: CCNE2, cyclin fold, Cln2 fusion (human)
Method: yeast growth competition, sequencing
Medium: yeast
Setting: strong parent motif
Baseline: not given
Reading: higher = stronger binding
Starting sequence: CCP110 docking peptide (human); EKVKRRLDLDIDG; partner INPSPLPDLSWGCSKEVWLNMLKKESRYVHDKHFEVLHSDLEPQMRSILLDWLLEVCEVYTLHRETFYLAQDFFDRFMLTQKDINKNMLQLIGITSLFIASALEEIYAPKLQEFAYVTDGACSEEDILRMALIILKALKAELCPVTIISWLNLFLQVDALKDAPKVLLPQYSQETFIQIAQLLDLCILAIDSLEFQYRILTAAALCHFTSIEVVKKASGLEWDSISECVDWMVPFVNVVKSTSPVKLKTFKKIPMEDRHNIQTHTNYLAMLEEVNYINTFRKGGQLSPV
Substitution | normalised enrichment score
R5K L9F | 3.47
R5A | -0.393
D8A | 1.08
L9A | 0.225
V3A | 0.909
R6A | 0.486
E1A | 1.91

Set 2
Target: Interferon regulatory factor 7, full length, phosphomimetic (IRF7, Homo sapiens, UniProt Q92985, residues 1-503, S471D/S472D/S475D/S476D/S477D/S483D/S484D/S487D)
Method: protein-binding microarray
Molecule type: double-stranded DNA, one strand shown
Medium: in vitro
Tested at: 2200 nM top
Setting: 60-bp whole probe
With: salmon DNA 0.4 mg/ml
Baseline: random background probes
Reading: higher = stronger binding
All sequences stand within: GCCTAGCAC … GTCTTGATTCGCTTGACGCTGCTG
Target sequence (chain): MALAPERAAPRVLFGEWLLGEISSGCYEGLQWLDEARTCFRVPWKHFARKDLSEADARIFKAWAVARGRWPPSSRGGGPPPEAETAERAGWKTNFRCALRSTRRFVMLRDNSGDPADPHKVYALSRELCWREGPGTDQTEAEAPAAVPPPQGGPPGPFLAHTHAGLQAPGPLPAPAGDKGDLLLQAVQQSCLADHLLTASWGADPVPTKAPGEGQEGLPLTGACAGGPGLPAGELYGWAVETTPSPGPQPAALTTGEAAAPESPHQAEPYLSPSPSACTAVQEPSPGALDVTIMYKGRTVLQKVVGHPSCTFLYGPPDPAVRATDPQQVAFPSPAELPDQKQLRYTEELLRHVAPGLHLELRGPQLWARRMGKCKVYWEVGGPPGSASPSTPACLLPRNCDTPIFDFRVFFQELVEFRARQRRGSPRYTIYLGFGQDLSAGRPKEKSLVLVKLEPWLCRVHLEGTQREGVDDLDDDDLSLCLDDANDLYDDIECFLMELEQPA
Sequence | fitted relative affinity [z-score]
TAGGTTTCACTTTCCAAAACGTGCTAG | 7.86
TTAGGAGTGCTTATCCTTTAGTGCTAG | -0.0374
GACGGTTTAGGTATCGGGACGTGCTAG | 0.791
GACGGACCGGGACTGGGGACGTGCTAG | -0.804
TGGATACTTTGCTGAACATCGTGCTAG | 0.288
TTAGGTCTCGGCATCGGTTAGTGCTAG | 0.00162
TTAGGTTGCGGTTCCGGTTAGTGCTAG | 2.04
TCATTCTTTTTTTTCTTACTGTGCTAG | 2.27
TTAGATTTCGGATTTCGATTAGTGCTA | 4.32

Set 3
Target: Histone acetyltransferase KAT6A, winged helix 1, GST fusion (KAT6A, Homo sapiens, UniProt Q92794, residues 1-85)
Method: protein binding microarray
Molecule type: double-stranded DNA, one strand shown
Medium: in vitro
Tested at: not given
Setting: 8-mer, flanks averaged, mean of 2 arrays, mostly near background
Baseline: not given
Reading: higher = stronger binding
Residues (chain): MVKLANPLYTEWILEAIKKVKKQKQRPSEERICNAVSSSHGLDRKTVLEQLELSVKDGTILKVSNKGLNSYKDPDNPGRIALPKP
Sequence | E-score
ATCGAGAC | -0.0866
AGGGGGTC | -0.0818
CATTTGGA | -0.197
CGCAAAGC | 0.294
GAGAAATA | -0.096
AGCCACGC | 0.0828
GCGGCCCA | 0.318
CCTGGGTC | -0.168
TAGATCTA | -0.0461
ACGGGCTC | 0.298
AACAGGGC | -0.136
GATTCGCA | 0.0829

Further values, each from its own experiment
Substance | target | assay | system | conditions | how to read | measurement | result
PhoQ, residues 284 288 289 292 302 303 AAQSYM | PhoP, residues 12 14 15 18 19 NHTVL (Escherichia coli, UniProt P23836) | Sort-seq, item: YFP reporter | E. coli | PhoQ-PhoP variant library, with: 10 µM Mg2+ | baseline: high Mg2+ state, higher = stronger signaling | fold induction | 1.17

Some of these lines once more (set 3):
Sequence | E-score
GCGGCCCA | 0.318
CCTGGGTC | -0.168
TAGATCTA | -0.0461
ACGGGCTC | 0.298
